Measured values gathered from unrelated publications.
Compare with care: the assays were run in different laboratories.

Structure (SMILES) | organism | test | system | setting | MIC
CC[C@@H](C)[C@@H](NC(=O)[C@@H](C)N)C(=O)N[C@H](CCCCN)C(=O)N[C@@H](C(=O)N[C@H](CCCNC(=N)N)C(=O)N[C@H](CCCCN)C(=O)N[C@H](CC(C)C)C(=O)N[C@H](Cc1ccccc1)C(=O)N[C@H](CCCCN)C(=O)N[C@H](CCCCN)C(=O)N[C@H](CC(C)C)C(=O)N[C@H](CC(C)C)C(=O)N[C@H](CCCNC(=N)N)C(N)=O)[C@H](C)CC | Escherichia coli | broth microdilution checkerboard | ATCC 25922, LB medium | added: levofloxacin | 6.25 µg/mL
CC(/C=C/C(O)=C1/C(=O)CNC1=O)=C\[C@@H](C)[C@H]1O[C@@]2(C)O[C@H](C[C@@H]3O[C@@]32CO)[C@@H]1C | Bacillus cereus | – | – | – | 50 µM
O=c1c2ccccc2sn1-c1cc(Br)cc(Br)c1 | Candida krusei | growth, broth dilution | ATCC 6258 | MIC-0 | 6.25 µg/mL
CC[C@@H](C)[C@@H](NC(=O)[C@@H](C)NC(=O)[C@@H](CCCCN)NC(=O)[C@@H](CC(C)C)NC(=O)[C@@H](CC(C)C)NC(=O)[C@H](NC(=O)[C@@H](CCCCN)NC(=O)[C@@H](CC(C)C)NC(=O)[C@@H](C)NC(=O)[C@@H](CCCCN)NC(=O)[C@@H](CCCCN)NC(=O)[C@@H](CCCCN)NC(=O)[C@@H](C)NC(=O)[C@@H](CCCCN)NC(=O)[C@@H](CO)NC(=O)[C@@H](Cc1ccccc1)NC(=O)[C@H](NC(=O)[C@@H](CCCCN)NC(=O)[C@@H](CC(C)C)NC(=O)[C@@H](Cc1ccccc1)NC(=O)[C@@H](CO)NC(=O)[C@@H](CCCCN)NC(=O)[C@@H](Cc1c[nH]c2ccccc12)NC(=O)[C@@H](CCCCN)NC(C)=O)[C@H](C)O)[C@H](C)O)C(=O)N[C@H](CO)C(=O)N[C@H](CCCCN)C(N)=O | Acinetobacter baumannii | broth microdilution | ATCC 19606 | 24 h, 37 °C | 1.3 µM
N#Cc1ccc2cccc(O)c2n1 | Salmonella enterica | microbial growth, agar dilution | ATCC13311 TYPHIMURIUM | – | > 1500 µM
COc1c2c(cc3oc(=O)cc(-c4ccc(Cl)cc4)c13)C(=O)c1cc(C)cc(O)c1C2=O | Bacillus cereus | microbial growth | – | – | 64 µg/mL
CC[C@@H](C)[C@@H](NC(=O)[C@@H](C)NC(=O)[C@@H](CCCCN)NC(=O)[C@@H](CC(C)C)NC(=O)[C@@H](CC(C)C)NC(=O)[C@H](NC(=O)[C@@H](CCCCN)NC(=O)[C@@H](CC(C)C)NC(=O)[C@@H](CCCCN)NC(=O)[C@@H](CCCCN)NC(=O)[C@@H](CCCCN)NC(=O)[C@@H](CCCCN)NC(=O)[C@@H](C)NC(=O)[C@@H](CCCCN)NC(=O)[C@@H](CO)NC(=O)[C@@H](Cc1ccccc1)NC(=O)[C@H](NC(=O)[C@@H](CCCCN)NC(=O)[C@@H](CC(C)C)NC(=O)[C@@H](Cc1ccccc1)NC(=O)[C@@H](CO)NC(=O)[C@@H](CCCCN)NC(=O)[C@@H](Cc1c[nH]c2ccccc12)NC(=O)[C@@H](CCCCN)NC(C)=O)[C@H](C)O)[C@H](C)O)C(=O)N[C@H](CO)C(=O)N[C@H](CCCCN)C(N)=O | Acinetobacter baumannii | – | 821, Mueller-Hinton broth | 24 h, 37 °C | 1.2 µM
COC1C=COC2(C)Oc3c(C)c(O)c4c(c3C2=O)C2=NC3(CCN(CC(C)C)CC3)NC2=C(NC(=O)C(C)=CC=CC(C)C(O)C(C)C(O)C(C)C(OC(=O)Nc2cnccn2)C1C)C4=O (stereo not shown) | Mycobacteroides abscessus | – | ATCC 19977 wild type | 90% growth inhibition | 0.028 µM
COc1cc(OC)c2c(c1)C(=O)c1cc3oc(=O)cc(-c4ccc(Cl)cc4)c3c(O)c1C2=O | Bacillus cereus | microbial growth | – | – | 64 µg/mL
CCCCCCCCCC1CC2CCCC3CC(CCCCCCCCC)NC(=N1)N23 (stereo not shown) | Candida krusei | fungal growth | ATCC 6258 | – | 2.9 µM
Oc1c(Br)ccc2cccnc12 | Salmonella enterica | microbial growth, agar dilution | ATCC13311 TYPHIMURIUM | – | 35.7 µM
CCCCCCCCCC1CC2CCC3CC(CCCCCCCCC)NC(=N1)N23 (stereo not shown) | Candida krusei | fungal growth | ATCC 6258 | – | 2.99 µM
CC(=O)N[C@H](CCCCN)C(=O)N[C@H](CC(C)C)C(=O)N[C@H](CCCCN)C(=O)N[C@H](CO)C(=O)N[C@H](CC(C)C)C(=O)N[C@H](CC(C)C)C(=O)N[C@H](CCCCN)C(=O)N[C@@H](C(=O)N[C@H](CC(C)C)C(=O)N[C@H](CO)C(=O)N[C@H](CCCCN)C(=O)N[C@H](C)C(=O)N[C@H](CCCCN)C(=O)N[C@H](CCCCN)C(=O)N[C@H](CCCCN)C(=O)N[C@H](CC(C)C)C(=O)N[C@H](CC(C)C)C(=O)N[C@H](CCCCN)C(=O)N[C@@H](C(=O)N[C@H](C)C(=O)N[C@H](CC(C)C)C(=O)N[C@H](CCCCN)C(=O)N[C@H](C)C(=O)N[C@H](CC(C)C)C(=O)N[C@H](CO)C(=O)N[C@H](CCCCN)C(N)=O)[C@H](C)O)[C@H](C)O | Acinetobacter baumannii | – | 964, Mueller-Hinton broth | 24 h, 37 °C | 0.7 µM
CCCCCCCCCCCCCCCCCCCCCCSCC1OC(OC2C(N)CC(N)C(OC3OC(CN)C(O)CC3N)C2O)C(O)C(N)C1O (stereo not shown) | Salmonella enterica | – | ATCC 14028 | – | > 150 µg/mL
CC[C@@H](C)[C@@H](NC(=O)[C@@H](C)NC(=O)[C@@H](CCCCN)NC(=O)[C@@H](CC(C)C)NC(=O)[C@@H](C)NC(=O)[C@H](NC(=O)[C@@H](CCCCN)NC(=O)[C@@H](CC(C)C)NC(=O)[C@H](NC(=O)[C@@H](CCCCN)NC(=O)[C@@H](CCCCN)NC(=O)[C@@H](CCCCN)NC(=O)[C@@H](C)NC(=O)[C@@H](CCCCN)NC(=O)[C@@H](CO)NC(=O)[C@@H](Cc1ccccc1)NC(=O)[C@H](NC(=O)[C@@H](CCCCN)NC(=O)[C@@H](CC(C)C)NC(=O)[C@@H](Cc1ccccc1)NC(=O)[C@@H](CO)NC(=O)[C@@H](CCCCN)NC(=O)[C@@H](Cc1c[nH]c2ccccc12)NC(=O)[C@@H](CCCCN)NC(C)=O)[C@H](C)O)C(C)C)[C@H](C)O)C(=O)N[C@H](CO)C(=O)N[C@H](CCCCN)C(N)=O | Acinetobacter baumannii | – | 985, Mueller-Hinton broth | 24 h, 37 °C | 0.7 µM
O=[N+]([O-])c1ccc2c(c1)C=[N+]1N3C(=[O+][Cu-2]1([Cl])[O]2)c1ccccc1NC3c1cc([N+](=O)[O-])ccc1O (stereo not shown) | Mycobacterium kansasii | broth microdilution | DSM 44162 | 7 days | 128 µg/mL
CCS(=O)(=O)[C@H]1[C@H](O)[C@@H](N)[C@@H](O[C@H]2[C@H](O[C@@H]3O[C@H](CO)[C@@H](O[C@H]4O[C@@H](CN)[C@@H](O)[C@H](O)[C@H]4N)[C@H]3O)[C@@H](O)[C@H](N)C[C@@H]2N)O[C@@H]1CO | Enterobacter cloacae | – | AG290 | – | > 128 µg/mL
COc1cccc(C2Nc3ccccc3C3=[O+][Cu-2]4([Cl])[O]c5c(cccc5OC)C=[N+]4N32)c1O (stereo not shown) | Mycobacterium kansasii | broth microdilution | DSM 44162 | 7 days | 256 µg/mL
CC(=O)N[C@H](CCCCN)C(=O)N[C@H](CC(C)C)C(=O)N[C@H](CCCCN)C(=O)N[C@H](CO)C(=O)N[C@H](CC(C)C)C(=O)N[C@H](CC(C)C)C(=O)N[C@H](CCCCN)C(=O)N[C@@H](C(=O)N[C@H](CC(C)C)C(=O)N[C@H](CO)C(=O)N[C@H](CCCCN)C(=O)N[C@H](C)C(=O)N[C@H](CCCCN)C(=O)N[C@H](CCCCN)C(=O)N[C@H](CCCCN)C(=O)N[C@H](CCCCN)C(=O)N[C@H](CC(C)C)C(=O)N[C@H](CCCCN)C(=O)N[C@@H](C(=O)N[C@H](CC(C)C)C(=O)N[C@H](CC(C)C)C(=O)N[C@H](CCCCN)C(=O)N[C@H](C)C(=O)N[C@H](CC(C)C)C(=O)N[C@H](CO)C(=O)N[C@H](CCCCN)C(N)=O)[C@H](C)O)[C@H](C)O | Acinetobacter baumannii | – | 899, Mueller-Hinton broth | 24 h, 37 °C | 0.3 µM

Excerpt of the above:
Structure (SMILES) | organism | test | system | setting | MIC
N#Cc1ccc2cccc(O)c2n1 | Salmonella enterica | microbial growth, agar dilution | ATCC13311 TYPHIMURIUM | – | > 1500 µM
